Assay results pooled from the literature.
Each line is one published result; not all experiments were run side by side. ± marks the error that the study gave.
APP: Amyloid-beta precursor protein (APP, Homo sapiens, UniProt P05067)
UniProt P05067, sequence (whole entry, looked up): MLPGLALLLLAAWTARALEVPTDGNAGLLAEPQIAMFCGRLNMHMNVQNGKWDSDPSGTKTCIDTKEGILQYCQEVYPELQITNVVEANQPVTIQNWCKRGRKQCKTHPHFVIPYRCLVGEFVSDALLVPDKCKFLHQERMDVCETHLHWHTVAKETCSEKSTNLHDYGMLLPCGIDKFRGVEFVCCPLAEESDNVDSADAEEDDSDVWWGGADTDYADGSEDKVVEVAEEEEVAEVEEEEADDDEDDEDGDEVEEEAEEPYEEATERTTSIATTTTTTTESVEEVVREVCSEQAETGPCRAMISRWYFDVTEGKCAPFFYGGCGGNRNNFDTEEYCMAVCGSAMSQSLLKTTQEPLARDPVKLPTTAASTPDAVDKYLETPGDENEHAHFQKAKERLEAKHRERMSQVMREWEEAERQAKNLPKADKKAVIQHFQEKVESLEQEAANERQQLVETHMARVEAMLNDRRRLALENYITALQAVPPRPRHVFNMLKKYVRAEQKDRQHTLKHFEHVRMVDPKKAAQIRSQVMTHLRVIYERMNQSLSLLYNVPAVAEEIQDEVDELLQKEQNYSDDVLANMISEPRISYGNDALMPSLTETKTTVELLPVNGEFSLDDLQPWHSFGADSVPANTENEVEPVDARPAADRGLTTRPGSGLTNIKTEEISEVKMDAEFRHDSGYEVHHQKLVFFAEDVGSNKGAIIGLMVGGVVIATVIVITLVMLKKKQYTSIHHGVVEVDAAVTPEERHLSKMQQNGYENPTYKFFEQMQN
APP Aβ40 fibrils: Amyloid-beta precursor protein, Aβ40 fibrils (APP, Homo sapiens, UniProt P05067)
APP Aβ42 aggregates: Amyloid-beta precursor protein, Aβ42 aggregates (APP, Homo sapiens, UniProt P05067)

Compound | target | test | test system | setting | how to read | measurement | value
CC[C@H](C)[C@H](NC(=O)[C@@H](NC(=O)[C@@H](N)C(C)C)C(C)C)C(=O)N[C@@H](C)C(=O)O | APP | amyloid aggregation, inhibitor, fluorescence |  | 10 µM, 24 h |  | inhibition | 66.2%
NC(=O)CN(Cc1ccccc1)C(=O)CN(CCOc1cc(-c2ccccn2)nc(-c2ccccn2)c1)C(=O)CNCc1ccccn1 | Amyloid-beta precursor protein, Cu/Zn-bound amyloid-beta 1-40 (APP, Homo sapiens, UniProt P05067) | ROS production, inhibitor |  | 20 µM, 30 min, pH 7.4, together with: Aβ1-16 10 µM, Cu2+ 9 µM, Zn2+ 10 µM |  | ascorbate consumption | 94.1%
[11CH3]Nc1ccc(-c2nc3ccc(O)cc3o2)cn1 | APP | binding, PET, reference Logan | Alzheimer's disease patients, white matter |  | relative to: cerebellum | distribution volume ratio | 1.03 ± 0.06
CC(C)C[C@@H]1NC(=O)CN(C)C(=O)CCCCC(=O)NCCCC[C@@H](C(=O)N[C@@H](CCCNC(=N)N)C(N)=O)NC(=O)[C@H](Cc2ccccc2)NC(=O)[C@H](Cc2ccccc2)NC(=O)c2ccccc2NC1=O | APP Aβ40 fibrils | fibril disruption |  | 2-fold molar excess, pH 7.4, 37 °C, together with: preformed Aβ1-40 fibrils |  | ThT fluorescence | decreased
CCCCN(CCCC)c1ccc(C=C(C#N)C(=O)OCCOCCOCCOC)cc1 | APP Aβ42 aggregates | binding, fluorescence spectroscopy | PBS | 4 µM, together with: pre-aggregated Aβ(1-42) 5 µM | relative to: probe without Aβ | fluorescence intensity | 9.4 fold
COc1cc(-c2nc3ccccc3s2)cc(CN(C)Cc2ccccn2)c1O | Amyloid-beta precursor protein, Aβ42 copper-bound (APP, Homo sapiens, UniProt P05067) | H2O2 production by Cu-Aβ42, inhibitor, HRP/Amplex Red |  | concentration not given, together with: sodium ascorbate |  | inhibition | > 90%
CC[C@H](C)[C@H](NC(=O)[C@@H](Cc1ccccc1)NC(=O)[C@@H](N)C(C)C)C(=O)N[C@@H](C)C(N)=O | APP | amyloid aggregation, inhibitor, fluorescence |  | 4 µM, 24 h |  | inhibition | 66.2%
CN(C)c1ccc(C=C(C#N)C(=O)OCC(O)CO)cc1 (centres unmarked) | APP Aβ42 aggregates | binding, fluorescence spectroscopy | PBS | 4 µM, together with: pre-aggregated Aβ(1-42) 5 µM |  | emission maximum | 467 nm
N#C/C(=C\c1ccc2cc(N3CCCCC3)ccc2c1)C(=O)OCC(O)CO (centres unmarked) | APP Aβ42 aggregates | fluorescence |  | free probe, 5% DMSO in water |  | emission maximum | 545 nm
COCCOCCOCCOC(=O)C(C#N)=Cc1ccc2cc(N3CCCCC3)ccc2c1 | APP Aβ42 aggregates | binding, fluorescence spectroscopy | PBS | 4 µM, together with: pre-aggregated Aβ(1-42) 5 µM | relative to: probe without Aβ | fluorescence intensity | 9.3 fold
COCCOCCOCCOC(=O)/C(C#N)=C/c1ccc2cc(N3CCOCC3)ccc2c1 | APP Aβ42 aggregates | fluorescence |  | together with: aggregated Abeta42 5 µM |  | excitation maximum | 380 nm
COCCOCCOCCOC(=O)C(C#N)=Cc1ccc(C=Cc2ccc(N(C)C)cc2)cc1 | APP Aβ42 aggregates | binding, fluorescence spectroscopy | PBS | 4 µM, together with: pre-aggregated Aβ(1-42) 5 µM | relative to: probe without Aβ | fluorescence intensity | 2.3 fold
CC[C@H](C)[C@H](NC(=O)[C@@H](NC(=O)[C@@H](N)C(C)C)C(C)C)C(=O)N[C@@H](C)C(N)=O | APP | amyloid aggregation, inhibitor, fluorescence |  | 4 µM, 24 h |  | inhibition | 52.7%
COc1cc(OC)c2c(O)c3c(=O)cc(C)oc3c(-c3c(OC)cc4cc5c(c(O)c4c3OC)C(=O)CC(C)(O)O5)c2c1 (centres unmarked) | APP | thioflavin-T fluorescence |  | 12.5 µM | relative to: untreated | Aβ aggregation | 65.1 ± 9.5%
CC(C)C[C@@H]1NC(=O)CN(C)C(=O)CCCCC(=O)NCCCC[C@@H](C(=O)N[C@@H](CCCNC(=N)N)C(N)=O)NC(=O)[C@H](Cc2ccccc2)NC(=O)[C@H](Cc2ccccc2)NC(=O)[C@H](C(C)C)NC1=O | APP Aβ40 fibrils | ThT fluorescence |  | 2-fold molar excess, pH 7.4, 37 °C, together with: preformed Aβ1-40 fibrils 40 µM |  | amyloid fibril disruption | 52.1%
COc1cc(C=CC(=O)CC(=O)C=Cc2ccc(OCC(=O)NCCOCCOCCOCCOCCOCCOCCOCC(F)(F)F)c(OC)c2)ccc1O | APP | Aβ aggregation, SDS-PAGE western blot, refers to: Aβ1-42 75-200 kDa band |  | 30 µM, 24 h, 37 °C, together with: Aβ1-42 10 µM | relative to: DMSO | band density | 398 ± 37%
CC[C@H](C)[C@H](NC(=O)[C@@H](NC(=O)[C@@H](N)C(C)C)C(C)C)C(=O)NCC(N)=O | APP | amyloid aggregation, inhibitor, fluorescence |  | 2 µM, 24 h |  | inhibition | 62.7%
COCCOCCOCCOCCOC(=O)/C(C#N)=C/c1ccc2cc(N3CCCCC3)ccc2c1 | APP Aβ42 aggregates | fluorescence |  | together with: aggregated Abeta42 5 µM | relative to: free compound | emission intensity increase | 8.4 fold
CC(C)C[C@@H]1NC(=O)CN(C)C(=O)CCCC(=O)NCCCC[C@@H](C(=O)N[C@@H](CCCNC(=N)N)C(N)=O)NC(=O)[C@H](Cc2ccccc2)NC(=O)[C@H](Cc2ccccc2)NC(=O)[C@H](C(C)C)NC1=O | APP Aβ40 fibrils | ThT fluorescence |  | 2-fold molar excess, pH 7.4, 37 °C, together with: preformed Aβ1-40 fibrils 40 µM |  | amyloid fibril disruption | 70.3%
COCCOCCOCCOC(=O)C(C#N)=Cc1ccc(N(C)C)cc1 | APP Aβ42 aggregates | binding, fluorescence spectroscopy | PBS | 4 µM, together with: pre-aggregated Aβ(1-42) 5 µM |  | emission maximum | 470 nm
[123I]c1ccc2nc(-c3ccc(-n4ccnn4)nc3)cn2c1 | Amyloid-beta precursor protein, amyloid-beta (APP, Homo sapiens, UniProt P05067) | SPECT | Alzheimer's disease patients, posterior cingulate | 150 to 240 min | relative to: cerebellum | SUVR | 1.4 ± 0.22
OC(Cc1cc(-c2ccc(C(O)C(F)(F)F)s2)sc1-c1ccc(-c2sc(-c3ccc(C(O)C(F)(F)F)s3)cc2CC(O)C(F)(F)F)s1)C(F)(F)F (centres unmarked) | Amyloid-beta precursor protein, Aβ40 aggregates (APP, Homo sapiens, UniProt P05067) | fluorescence |  | Aβ aggregated 90 min | relative to: tau Kd over Aβ Kd | Kd ratio | 108
CC(C)C[C@@H]1NC(=O)CN(C)C(=O)CCC(=O)NCCCC[C@@H](C(=O)N[C@@H](CCCNC(=N)N)C(N)=O)NC(=O)[C@H](Cc2ccccc2)NC(=O)[C@H](Cc2ccccc2)NC(=O)c2ccccc2NC1=O | APP Aβ40 fibrils | ThT fluorescence |  | 2-fold molar excess, pH 7.4, 37 °C, together with: preformed Aβ1-40 fibrils 40 µM |  | amyloid fibril disruption | 71.5%
CC[C@H](C)[C@H](NC(=O)[C@@H]1CCCN1C(=O)[C@@H](N)C(C)C)C(=O)N[C@@H](C)C(N)=O | APP | amyloid aggregation, inhibitor, fluorescence |  | 10 µM, 24 h |  | inhibition | 18.5%
CCN(CC)c1ccc(C=C(C#N)C(=O)OCCOCCOCCOC)cc1 | APP Aβ42 aggregates | binding, fluorescence spectroscopy | PBS | 4 µM, together with: pre-aggregated Aβ(1-42) 5 µM | relative to: probe without Aβ | fluorescence intensity | 4.2 fold
CC(=O)N[C@@H](CC(C)C)C(=O)Nc1ccccc1C(=O)N[C@@H](Cc1ccccc1)C(=O)N[C@@H](Cc1ccccc1)C(=O)N[C@@H](CCCCN)C(N)=O | APP Aβ40 fibrils | ThT fluorescence |  | 2-fold molar excess, pH 7.4, 37 °C, together with: preformed Aβ1-40 fibrils 40 µM |  | amyloid fibril disruption | 34%
CC[C@H](C)[C@H](NC(=O)[C@@H](NC(=O)[C@@H](NC(=O)[C@@H](N)C(C)C)C(C)C)[C@@H](C)CC)C(N)=O | APP | amyloid aggregation, inhibitor, fluorescence |  | 10 µM, 24 h |  | inhibition | 48.2%
CC[C@H](C)[C@@H]1NC(=O)[C@H]([C@@H](C)O)NC(=O)[C@H](Cc2ccc(O)cc2)NC(=O)[C@H](CCCNC(=N)N)NC(=O)[C@@H]2CCCN2C(=O)[C@H]2CCCN2C(=O)[C@H]([C@@H](C)O)NC(=O)[C@H](C(C)C)NC(=O)[C@H](C(C)C)NC(=O)[C@H](CCCCN)NC(=O)[C@H](CO)NC(=O)[C@@H](CCC(N)=O)NC(=O)[C@H](CO)NC(=O)[C@H](Cc2ccc(O)cc2)NC(=O)[C@H](CO)NC(=O)[C@H](Cc2ccc(O)cc2)NC(=O)[C@@H]2CCCN2C(=O)[C@H](CO)NC(=O)[C@H](CC(C)C)NC(=O)[C@H](CC(C)C)NC(=O)[C@H](C)NC(=O)[C@H](C)NC1=O | Amyloid-beta precursor protein, Aβ40 (APP, Homo sapiens, UniProt P05067) | amyloid-beta aggregation, dynamic light scattering | PBS | 14 µM, 5 h, 37 °C, together with: 140 µM amyloid-beta |  | hydrodynamic diameter | ~1000 nm
COCCOCCOCCOC(=O)/C(C#N)=C/c1ccc2cc(NCCN3CCOCC3)ccc2c1 | APP Aβ42 aggregates | fluorescence |  | together with: aggregated Abeta42 5 µM | relative to: free compound | emission intensity increase | 2.9 fold

For quick reference, copied from above:
Compound | target | test | test system | setting | how to read | measurement | value
COCCOCCOCCOC(=O)C(C#N)=Cc1ccc(N(C)C)cc1 | APP Aβ42 aggregates | binding, fluorescence spectroscopy | PBS | 4 µM, together with: pre-aggregated Aβ(1-42) 5 µM |  | emission maximum | 470 nm
CC[C@H](C)[C@H](NC(=O)[C@@H](NC(=O)[C@@H](N)C(C)C)C(C)C)C(=O)N[C@@H](C)C(N)=O | APP | amyloid aggregation, inhibitor, fluorescence |  | 4 µM, 24 h |  | inhibition | 52.7%
CN(C)c1ccc(C=C(C#N)C(=O)OCC(O)CO)cc1 (centres unmarked) | APP Aβ42 aggregates | binding, fluorescence spectroscopy | PBS | 4 µM, together with: pre-aggregated Aβ(1-42) 5 µM |  | emission maximum | 467 nm
CC[C@H](C)[C@H](NC(=O)[C@@H](NC(=O)[C@@H](NC(=O)[C@@H](N)C(C)C)C(C)C)[C@@H](C)CC)C(N)=O | APP | amyloid aggregation, inhibitor, fluorescence |  | 10 µM, 24 h |  | inhibition | 48.2%
N#C/C(=C\c1ccc2cc(N3CCCCC3)ccc2c1)C(=O)OCC(O)CO (centres unmarked) | APP Aβ42 aggregates | fluorescence |  | free probe, 5% DMSO in water |  | emission maximum | 545 nm
